Experimental data gathered from unrelated publications.
Compare with care: the assays were run in different laboratories. ± gives the spread as reported. Primed or numbered codes have the meaning given here. Where no end group is shown, it is not given here. No end group written: not given here. [ ]: non-standard residue; d: D form. *: point of attachment.
SRXN1 C99S: SRXN1 C99S, Alexa 546 label (Homo sapiens)
B1: eIF4A Q186C/G370C (Saccharomyces cerevisiae, UniProt P10081); Alexa555/Alexa647; sequence looked up; chain MSEGITDIEESQIQTNYDKVVYKFDDMELDENLLRGVFGYGFEEPSAIQQRAIMPIIEGHDVLAQAQSGTGKTGTFSIAALQRIDTSVKAPQALMLAPTRELALQIQKVVMALAFHMDIKVHACIGGTSFVEDAEGLRDAQIVVGTPGRVFDNIQRRRFRTDKIKMFILDEADEMLSSGFKEQIYCIFTLLPPTTQVVLLSATMPNDVLEVTTKFMRNPVRILVKKDELTLEGIKQFYVNVEEEEYKYECLTDLYDSISVTQAVIFCNTRRKVEELTTKLRNDKFTVSAIYSDLPQQERDTIMKEFRSGSSRILISTDLLARGIDVQQVSLVINYDLPANKENYIHRIGRGGRFGRKGVAINFVTNEDVCAMRELEKFYSTQIEELPSDIATLLN
B2: protein (Caulobacter crescentus, UniProt A0A0H3C860); sequence looked up; chain MEPKAALSAIRDFIAPVAPSNAPDLSEGAKVVVGQPEKAVEAETALKAERQLAAEPEKPVDNGPQPGDLRLVIEHDDASGAYVYKTVDRRTGETLQQFPREEILKMRDGPDYESGDVFDGQA
B3: TIMP3 (Homo sapiens, UniProt P35625); sequence looked up; chain CTCSPSHPQDAFCNSDIVIRAKVVGKKLVKEGPFGTLVYTIKQMKMYRGFTKMPHVQYIHTEASESLCGLKLEVNKYQYLLTGRVYDGKMYTGLCNFVERWDQLTLSQRKGLNYRYHLGCNCKIKSCYYLPCFVTSKNECLWTDMLSNFGYPGYQSKHYACIRQKGGYCSWYRGWAPPDKSIINATDP
B4: UGT1A9 (Homo sapiens, UniProt O60656); chain GKLLVVPMDGSHWFTMRSVVEKLILRGHEVVVVMPEVSWQLGRSLNCTVKTYSTSYTLEDLDREFKAFAHAQWKAQVRSIYSLLMGSYNDIFDLFFSNCRSLFKDKKLVEYLKESSFDAVFLDPFDNCGLIVAKYFSLPSVVFARGILCHYLEEGAQCPAPLSYVPRILLGFSDAMTFKERVRNHIMHLEEHLLCHRFFKNALEIASEILQTPVTEYDLYSHTSIWLLRTDFVLDYPKPVMPNMIFIGGINCHQGKPLPMEFEAYINASGEHGIVVFSLGSMVSEIPEKKAMAIADALGKIPQTVLWRYTGTRPSNLANNTILVKWLPQNDLLGHPMTRAFITHAGSHGVYESICNGVPMVMMPLFGDQMDNAKRMETKGAGVTLNVLEMTSEDLENALKAVINDKSYKENIMRLSSLHKDRPVEPLDLAVFWVEFVMRHKGAPHLRPAAHDLTWYQYHSLDVIGFLLAVVLTVAFITFKCCAYGYRKCLGKKGRVKKAHKSKTH
B5: Reln 1948-2662 R2193A/K2194A (Mus musculus, UniProt Q60841); chain DGNNLNNPVLLLDTFDFGPREDNWFFYPGGNIGLYCPYSSKGAPEEDSAMVFVSNEVGEHSITTRDLSVNENTIIQFEINVGCSTDSSSADPVRLEFSRDFGATWHLLLPLCYHSSSLVSSLCSTEHHPSSTYYAGTTQGWRREVVHFGKLHLCGSVRFRWYQGFYPAGSQPVTWAIDNVYIGPQCEEMCYGHGSCINGTKCICDPGYSGPTCKISTKNPDFLKDDFEGQLESDRFLLMSGGKPSAACGILSSGNNLFFNEDGLRMLVTRDLDLSHARFVQFFMRLGCGKGVPDPRSQPVLLQYSLNGGLSWSLLQEFLFSNSSNVGRYIALEMPLKARSGSTRLRWWQPSENGHFYSPWVIDQILIGGNISGNTVLEDDFSTLDSRKWLLHPGGTKMPVCGSTGDALVFIEKASTRYVVTTDIAVNEDSFLQIDFAASCSVTDSCYAIELEYSVDLGLSWHPLVRDCLPTNVECSRYHLQRILVSDTFNKWTRITLPLPSYTRSQATRFRWHQPAPFDKQQTWAIDNVYIGDGCLDMCSGHGRCVQGSCVCDEQWGGLYCDEPETSLPTQLKDNFNRAPSNQNWLTVSGGKLSTVCGAVASGLALHFSGGCSRLLVTVDLNLTNAEFIQFYFMYGCLITPSNRNQGVLLEYSVNGGITWNLLMEIFYDQYSKPGFVNILLPPDAKEIATRFRWWQPRHDGLDQNDWAIDNVLIS
B6: mmoB 1-141 D36C (Methylococcus capsulatus, UniProt P18797); 1,5-IAEDANS label; chain MSVNSNAYDAGIMGLKGKDFADQFFADENQVVHESCTVVLVLKKSDEINTFIEEILLTDYKKNVNPTVNVEDRAGYWWIKANGKIEVDCDEISELLGRQFNVYDFLVDVSSTIGRAYTLGNKFTITSELMGLDRKLEDYHA
B7: Fermt2 PH 386-496 (Mus musculus, UniProt Q8CIB5); Atto520 label; sequence looked up; chain KLTLKGYKQYWCTFKDTSISCYKSREESSGTPAHQLNLRGCEVTPDVNISGQKFNIKLLIPVAEGMNEIWLRCDNEKQYAHWMAACRLASKGKTMADSSYNLEVQNILSFL
B8: TREM2 19-174 (Homo sapiens, UniProt Q9NZC2); sequence looked up; chain HNTTVFQGVAGQSLQVSCPYDSMKHWGRRKAWCRQLGEKGPCQRVVSTHNLWLLSFLRRWNGSTAITDDTLGGTLTITLRNLQPHDAGLYQCQSLHGSEADTLRKVLVEVLADPLDHRDAGDLWFPGESESFEDAHVEHSISRSLLEGEIPFPPTS
B9: HSPB5 (Homo sapiens, UniProt P02511); sequence looked up; chain MDIAIHHPWIRRPFFPFHSPSRLFDQFFGEHLLESDLFPTSTSLSPFYLRPPSFLRAPSWFDTGLSEMRLEKDRFSVNLDVKHFSPEELKVKVLGDVIEVHGKHEERQDEHGFISREFHRKYRIPADVDPLTITSSLSSDGVLTVNGPRKQVSGPERTIPITREEKPAVTAAPKK
Chain of UniProt P26447 (whole entry, looked up): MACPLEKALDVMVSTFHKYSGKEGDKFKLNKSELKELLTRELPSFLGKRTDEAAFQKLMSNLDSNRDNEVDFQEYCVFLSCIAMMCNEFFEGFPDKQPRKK
Chain of UniProt P22869 (whole entry, looked up): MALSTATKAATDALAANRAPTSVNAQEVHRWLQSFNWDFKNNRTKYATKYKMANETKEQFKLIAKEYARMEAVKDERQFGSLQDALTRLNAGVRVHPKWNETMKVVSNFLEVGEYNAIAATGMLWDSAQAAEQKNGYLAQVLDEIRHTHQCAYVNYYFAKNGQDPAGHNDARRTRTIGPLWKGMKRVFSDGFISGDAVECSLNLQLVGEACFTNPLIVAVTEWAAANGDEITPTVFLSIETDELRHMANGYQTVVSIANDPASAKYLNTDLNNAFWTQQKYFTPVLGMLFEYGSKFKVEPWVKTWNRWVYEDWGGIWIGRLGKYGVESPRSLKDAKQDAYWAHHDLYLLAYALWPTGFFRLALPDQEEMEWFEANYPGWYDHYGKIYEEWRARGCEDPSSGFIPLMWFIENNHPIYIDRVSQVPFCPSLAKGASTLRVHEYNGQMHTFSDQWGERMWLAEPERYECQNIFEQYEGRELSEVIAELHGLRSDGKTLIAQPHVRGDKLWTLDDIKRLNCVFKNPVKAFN
Chain of UniProt O15392 (whole entry, looked up): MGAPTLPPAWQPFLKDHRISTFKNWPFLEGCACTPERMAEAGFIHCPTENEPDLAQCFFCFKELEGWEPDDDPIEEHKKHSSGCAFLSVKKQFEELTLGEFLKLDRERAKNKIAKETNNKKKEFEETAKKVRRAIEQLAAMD
Chain of UniProt O95817 (whole entry, unmodified, looked up): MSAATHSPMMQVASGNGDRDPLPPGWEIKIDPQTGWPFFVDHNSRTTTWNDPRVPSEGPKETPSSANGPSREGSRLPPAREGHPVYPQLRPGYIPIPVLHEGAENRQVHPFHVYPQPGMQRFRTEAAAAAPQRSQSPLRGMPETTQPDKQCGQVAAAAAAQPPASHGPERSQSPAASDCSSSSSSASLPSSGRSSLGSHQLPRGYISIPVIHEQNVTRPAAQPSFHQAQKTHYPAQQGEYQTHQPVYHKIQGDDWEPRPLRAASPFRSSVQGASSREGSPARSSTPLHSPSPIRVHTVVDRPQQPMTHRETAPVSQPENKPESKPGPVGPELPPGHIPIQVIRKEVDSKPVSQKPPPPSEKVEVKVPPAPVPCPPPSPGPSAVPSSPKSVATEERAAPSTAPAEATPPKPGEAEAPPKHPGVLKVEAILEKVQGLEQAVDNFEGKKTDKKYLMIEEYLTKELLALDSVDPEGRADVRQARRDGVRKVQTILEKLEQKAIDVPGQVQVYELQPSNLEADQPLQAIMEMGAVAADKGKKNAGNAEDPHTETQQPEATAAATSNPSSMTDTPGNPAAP
Chain of UniProt O14965 (whole entry, looked up): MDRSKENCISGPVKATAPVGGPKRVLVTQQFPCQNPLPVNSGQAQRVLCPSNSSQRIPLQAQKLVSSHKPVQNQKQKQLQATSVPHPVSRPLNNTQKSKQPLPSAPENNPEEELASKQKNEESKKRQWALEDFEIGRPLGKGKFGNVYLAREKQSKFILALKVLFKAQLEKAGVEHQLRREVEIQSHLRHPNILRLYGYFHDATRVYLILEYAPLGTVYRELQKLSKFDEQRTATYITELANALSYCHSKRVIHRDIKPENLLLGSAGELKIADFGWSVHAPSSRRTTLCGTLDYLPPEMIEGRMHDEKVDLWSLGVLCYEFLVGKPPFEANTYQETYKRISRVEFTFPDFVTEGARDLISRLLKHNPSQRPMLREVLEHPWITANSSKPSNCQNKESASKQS
Chain of UniProt P52917 (whole entry, looked up): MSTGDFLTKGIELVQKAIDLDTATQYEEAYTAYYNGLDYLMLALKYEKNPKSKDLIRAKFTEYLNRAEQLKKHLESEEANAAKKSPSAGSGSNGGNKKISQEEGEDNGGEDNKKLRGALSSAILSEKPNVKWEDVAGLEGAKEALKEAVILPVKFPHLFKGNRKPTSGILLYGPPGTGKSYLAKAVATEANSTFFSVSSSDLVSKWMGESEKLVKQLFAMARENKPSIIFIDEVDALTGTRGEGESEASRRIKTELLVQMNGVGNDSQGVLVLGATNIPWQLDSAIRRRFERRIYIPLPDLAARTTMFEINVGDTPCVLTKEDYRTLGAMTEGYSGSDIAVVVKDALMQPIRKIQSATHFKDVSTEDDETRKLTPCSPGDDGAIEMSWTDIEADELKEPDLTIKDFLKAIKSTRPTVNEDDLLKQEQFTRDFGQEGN
Chain of UniProt P34167 (whole entry, looked up): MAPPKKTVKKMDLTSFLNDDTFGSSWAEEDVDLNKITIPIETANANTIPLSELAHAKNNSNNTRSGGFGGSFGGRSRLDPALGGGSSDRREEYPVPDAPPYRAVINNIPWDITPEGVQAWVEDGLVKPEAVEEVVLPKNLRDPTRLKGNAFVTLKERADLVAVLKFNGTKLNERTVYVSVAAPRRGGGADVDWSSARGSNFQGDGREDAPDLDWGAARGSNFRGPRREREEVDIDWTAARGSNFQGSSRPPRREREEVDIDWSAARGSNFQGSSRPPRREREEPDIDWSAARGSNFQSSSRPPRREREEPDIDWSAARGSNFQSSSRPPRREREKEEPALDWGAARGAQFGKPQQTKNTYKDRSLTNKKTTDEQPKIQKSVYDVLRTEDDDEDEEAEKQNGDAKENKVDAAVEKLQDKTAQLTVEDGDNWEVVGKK
Chain of UniProt Q16539 (whole entry, looked up): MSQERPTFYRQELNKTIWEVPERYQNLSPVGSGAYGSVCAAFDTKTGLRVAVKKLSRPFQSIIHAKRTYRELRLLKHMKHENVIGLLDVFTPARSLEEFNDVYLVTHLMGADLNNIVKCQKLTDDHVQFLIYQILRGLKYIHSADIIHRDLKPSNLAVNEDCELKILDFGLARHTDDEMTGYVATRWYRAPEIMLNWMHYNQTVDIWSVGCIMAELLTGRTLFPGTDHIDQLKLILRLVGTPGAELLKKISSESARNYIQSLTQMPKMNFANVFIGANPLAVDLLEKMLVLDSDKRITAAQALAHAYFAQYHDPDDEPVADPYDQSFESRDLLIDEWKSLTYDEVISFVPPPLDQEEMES
Chain of UniProt P06734 (whole entry, looked up): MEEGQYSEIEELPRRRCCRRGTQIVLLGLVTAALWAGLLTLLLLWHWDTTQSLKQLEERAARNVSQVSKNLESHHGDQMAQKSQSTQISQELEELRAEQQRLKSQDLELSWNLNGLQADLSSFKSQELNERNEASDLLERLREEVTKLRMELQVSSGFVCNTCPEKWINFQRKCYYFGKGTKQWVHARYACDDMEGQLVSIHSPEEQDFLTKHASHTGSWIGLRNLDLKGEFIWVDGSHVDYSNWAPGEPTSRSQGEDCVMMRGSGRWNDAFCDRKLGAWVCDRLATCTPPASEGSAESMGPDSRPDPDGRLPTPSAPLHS

Molecule	tested on	test	system	conditions	measurement	result
B1 (eIF4A Q186C/G370C)	TIF3 (Saccharomyces cerevisiae, UniProt P34167)	single-molecule FRET		apparent	Kd	2.9 ± 1.2 µM
B2 (protein)	popA, Atto-488 label (Caulobacter crescentus, UniProt A0A0H3C8I4)	MST			Kd	5.6 ± 0.54 µM
EGPIALKFSHLCLEDHNSYCINGACAFHHELEKAICRCFTGYTGERCEHLTLTSYAVDSY (EPGN EGF domain 49-109 (Homo sapiens))	EGFR 25-525 (Homo sapiens, UniProt P00533)	ITC		pH 8.0, 4 °C, NaCl 150 mM, single-site model	Kd	2.8 µM
TREM2 fragment (Homo sapiens)	amyloid beta 42 fibrils (UniProt P05067)	co-sedimentation		apparent	Kd	2.6 ± 0.3 µM
RRRRRRC / CGSFPPWVQKTEV (peptide; cyclic, disulfide-linked poly-Arg)	DLG4 309-422 (Homo sapiens, UniProt P78352)	SPR	peptide		Kd	0.119 µM
B3 (TIMP3)	LRP1 (Homo sapiens, UniProt Q07954)	SPR		25 °C	Kd	0.033 ± 0.012 µM
B4 (UGT1A9)	COc1cccc(-c2oc3ccccc3c(=O)c2O)c1	steady-state kinetics		pH 7.4, 37 °C	Km	0.063 µM
TKDELTKIMDRASKIEQIQKLAKYAISALNYEDLPTAKDELTKALDLLNSI (VTA1 280-330 (Saccharomyces cerevisiae, UniProt Q06263); sequence looked up)	VPS4 299-415 (Saccharomyces cerevisiae, UniProt P52917)	SPR		pH 7.0, NaCl 150 mM, equilibrium fit	Kd	85 ± 13 µM
CD8A fragment (Homo sapiens) (sequence not shown)	CEACAM5 del42-46 (Homo sapiens)	SPR			Kd	0.017 µM
{5‑TAMRA-Ahx}-NLSELDRLLDELN (PXN residues 141-153 L10D; N-terminal TAMRA, aminohexanoyl linker; 5‑TAMRA = CN(C)c1ccc2c(-c3ccc(C(=O)*)cc3C(=O)[O-])c3ccc(N(C)C)cc3[o+]c2c1; Ahx = NCCCCCC(=O)O)	PTK2 892-1052 I936A (Homo sapiens, UniProt Q05397)	fluorescence polarisation	peptide		Kd	70.8 µM
S100A4, QSY 35 on amines (Homo sapiens, UniProt P26447)	SRXN1 C99S	FRET		apparent, with EGTA	Kd	0.0429 µM
MGLQERRGSNVSLTLDMCTPGCNEEGFGYLVSPREESAHEYLLS (PTPN5 residues 214-257)	MAPK14 unphosphorylated (UniProt Q16539)	ITC	peptide	25 °C	Kd	1.34 ± 0.135 µM
FN1 (Homo sapiens)	ligB 631-1417 (Leptospira interrogans, UniProt C0J1Q6)	ITC		pH 7.5, 25 °C	Kd	0.01 µM
{5FAM′}-DDTSRMEAVD (HSP90AA1 723-732 E730A (UniProt P07900); N-terminal 5-FAM; 5FAM′ = 5-carboxyfluorescein; sequence looked up)	STUB1 (Homo sapiens, UniProt Q9UNE7)	fluorescence polarisation	peptide	pH 7.4, 25 °C, added: 5-Fam tracer 20 nM	Kd	1.7 ± 0.24 µM
Il2rg extracellular domain (Mus musculus) (sequence not shown)	Il7r fragment (Mus musculus)	SPR		monomeric and dimeric forms	Kd	50.8 µM
ART[Lys(Me)]QTARKSTG (histone H3 2-13 (UniProt P68431); K4me1; Lys(Me) = CNCCCC[C@H](N)C(=O)O; sequence looked up)	BIRC5 1-142 (Homo sapiens, UniProt O15392)	ITC	peptide	pH 7.2	Kd	9.1 ± 1 µM
Tigit fragment (Mus musculus)	Pvr/IgG1 Fc Fc fusion, extracellular domain (Mus musculus)	SPR		avidity, bivalent analyte model	Kd	1.29 µM
S100A4, S-glutathionylated, QSY 35 on amines (Homo sapiens, UniProt P26447)	SRXN1 C99S	FRET		apparent, with Ca2+, added: Ca2+	Kd	0.021 µM
B5 (Reln 1948-2662 R2193A/K2194A)	LRP8 ectodomain, lacking LA4-6 (Homo sapiens)	SPR		steady-state affinity	Kd	0.16 µM
ARTK(Me2)QTARKSTGY (histone H3 peptide 2-13 (UniProt P68431); K4me2)	MORF4L1 1-90 (Homo sapiens, UniProt Q9UBU8-2)	NMR titration	peptide	pH 7.5, 25 °C	Kd	3190 ± 830 µM
IGHE Cε2-4 Fc (Homo sapiens)	FCER2 156-298 (Homo sapiens, UniProt P06734)	SPR			Kd	9.1 µM
ribosomes whole ribosome (Rattus norvegicus)	CRIP3 precursor 22-286 (Zea mays, UniProt P28522)	SPR	ribosomes		Kd	0.5 ± 0.0462 µM
APP Aβ, β-GalNAc on Tyr10	Aβ42 (Homo sapiens, UniProt P05067)	BLI			Kd	17.9 µM
CFH fragment (Homo sapiens)	C3 C3b (Homo sapiens)	SPR		20 µM, 25 °C	Kd	10 µM
B6 (mmoB 1-141 D36C)	soluble methane monooxygenase hydroxylase α2β2γ2 dimer 1-527 (Methylococcus capsulatus, UniProt P22869)	fluorescence polarisation		two-site fit, added: diiron(III)	Kd	0.55 ± 0.03 µM
EDFRSGSEAFDLIAQDEEEFNKEHQFIQEEN (CEP192 506-536 (Homo sapiens, UniProt Q8TEP8))	AURKA kinase domain 123-403, phosphorylated (Homo sapiens, UniProt O14965)	ITC	peptide		Kd	5.3 ± 0.6 µM
B7 (Fermt2 PH 386-496)	Pxn, Atto520 label (Mus musculus, UniProt Q8VI36-2)	ITC			Kd	1.08 ± 0.32 µM
B8 (TREM2 19-174)	Aβ42 oligomers (Homo sapiens, UniProt P05067)	BLI		30 °C	Kd	0.0127 ± 0.0005 µM
B9 (HSPB5)	BAG3 del87-101/del200-213 (UniProt O95817)	flow cytometry		apparent	Kd	> 50 µM

A few entries again:
Molecule	tested on	test	system	conditions	measurement	result
B1 (eIF4A Q186C/G370C)	TIF3 (Saccharomyces cerevisiae, UniProt P34167)	single-molecule FRET		apparent	Kd	2.9 ± 1.2 µM
B2 (protein)	popA, Atto-488 label (Caulobacter crescentus, UniProt A0A0H3C8I4)	MST			Kd	5.6 ± 0.54 µM
EGPIALKFSHLCLEDHNSYCINGACAFHHELEKAICRCFTGYTGERCEHLTLTSYAVDSY (EPGN EGF domain 49-109 (Homo sapiens))	EGFR 25-525 (Homo sapiens, UniProt P00533)	ITC		pH 8.0, 4 °C, NaCl 150 mM, single-site model	Kd	2.8 µM
TREM2 fragment (Homo sapiens)	amyloid beta 42 fibrils (UniProt P05067)	co-sedimentation		apparent	Kd	2.6 ± 0.3 µM
RRRRRRC / CGSFPPWVQKTEV (peptide; cyclic, disulfide-linked poly-Arg)	DLG4 309-422 (Homo sapiens, UniProt P78352)	SPR	peptide		Kd	0.119 µM
